Measurements gathered from unrelated publications.
Protocols differ between the studies behind these lines. ± marks the error that the study gave.
Organism: HIV-1

SMILES	effect on	cells	strain	tested at	quantity	result
Cc1ccc(N2C(=O)CCC2(C#N)c2ccc(OCc3ccc(Cl)cc3Cl)cc2)cc1 (stereo not drawn)	viral replication	human PBMC	LAI		EC90	24.4 µM
N#C[C@]1(CO)O[C@@H](n2cnc3c(N)nc(N)nc32)C[C@@H]1O		MT-4			IC50	0.0003 µM
CC(=NNC(=O)CN1c2c(-c3ccccc3)n[nH]c2-c2ccccc2S1(=O)=O)c1ccc2ccccc2c1	viral replication	PBMC			EC90	> 100 µM
Cc1cn([C@H]2C[C@H](N=[N+]=[N-])[C@@H](CO)O2)c(=O)[nH]c1=O	virus neutralization		MN		IC50	0.1941 ± 0.0016 µM
Cc1ccc(N2C(=O)CCC2(CN)c2ccc(OCc3ccccc3)cc2)cc1 (stereo not drawn)	viral replication	human PBMC	LAI		EC90	41.5 µM
CC(=NNC(=O)CN1c2c(-c3ccccc3)n[nH]c2-c2ccccc2S1(=O)=O)c1sccc1Br	viral replication	PBMC			EC90	> 100 µM
Cc1nc(C(NC(=O)c2ccc(-c3ccc(Cl)cc3)[nH]2)C2CCCCN2)sc1CO (mixture of isomers)	viral entry	TZM-bl	panel of 56 Env pseudoviruses	up to 3 µM	sensitive viruses	82%
CC[C@H](C)[C@H](NC(=O)[C@H](CC(C)C)NC(=O)[C@H](CCC(=O)O)NC(=O)[C@H](CCC(=O)O)NC(=O)[C@@H](NC(=O)[C@H](CCCCN)NC(=O)[C@H](CCCCN)NC(=O)[C@@H](NC(=O)[C@H](Cc1ccc(O)cc1)NC(=O)[C@H](CCC(=O)O)NC(=O)[C@H](CCC(=O)O)NC(=O)[C@@H](NC(=O)[C@H](CCCCN)NC(=O)[C@H](CCCCN)NC(=O)[C@H](CC(=O)O)NC(=O)[C@H](Cc1c[nH]c2ccccc12)NC(=O)[C@H](CCC(=O)O)NC(=O)[C@H](CCC(=O)O)NC(=O)[C@H](Cc1c[nH]c2ccccc12)NC(=O)[C@@H](NC(=O)[C@@H](N)CCSC)[C@@H](C)O)[C@@H](C)CC)[C@@H](C)O)[C@@H](C)CC)C(=O)N[C@@H](CCCCN)C(=O)N[C@@H](CCCCN)C(=O)N[C@@H](CO)C(=O)O	virus neutralization		SF162		IC50	0.0113 ± 0.0022 µM
O=C(CN1c2c(-c3ccccc3)n[nH]c2-c2ccccc2S1(=O)=O)NN=Cc1cccs1	viral replication	PBMC			EC90	> 100 µM
